Experimental data from different studies.
Parts stem from different laboratories: compare values within a part only.

Sample 1
Target: Sal-like protein 4, full length isoform A (SALL4, Homo sapiens, UniProt Q9UJQ4, residues 1-1053)
Sequence of UniProt Q9UJQ4 (whole entry, looked up): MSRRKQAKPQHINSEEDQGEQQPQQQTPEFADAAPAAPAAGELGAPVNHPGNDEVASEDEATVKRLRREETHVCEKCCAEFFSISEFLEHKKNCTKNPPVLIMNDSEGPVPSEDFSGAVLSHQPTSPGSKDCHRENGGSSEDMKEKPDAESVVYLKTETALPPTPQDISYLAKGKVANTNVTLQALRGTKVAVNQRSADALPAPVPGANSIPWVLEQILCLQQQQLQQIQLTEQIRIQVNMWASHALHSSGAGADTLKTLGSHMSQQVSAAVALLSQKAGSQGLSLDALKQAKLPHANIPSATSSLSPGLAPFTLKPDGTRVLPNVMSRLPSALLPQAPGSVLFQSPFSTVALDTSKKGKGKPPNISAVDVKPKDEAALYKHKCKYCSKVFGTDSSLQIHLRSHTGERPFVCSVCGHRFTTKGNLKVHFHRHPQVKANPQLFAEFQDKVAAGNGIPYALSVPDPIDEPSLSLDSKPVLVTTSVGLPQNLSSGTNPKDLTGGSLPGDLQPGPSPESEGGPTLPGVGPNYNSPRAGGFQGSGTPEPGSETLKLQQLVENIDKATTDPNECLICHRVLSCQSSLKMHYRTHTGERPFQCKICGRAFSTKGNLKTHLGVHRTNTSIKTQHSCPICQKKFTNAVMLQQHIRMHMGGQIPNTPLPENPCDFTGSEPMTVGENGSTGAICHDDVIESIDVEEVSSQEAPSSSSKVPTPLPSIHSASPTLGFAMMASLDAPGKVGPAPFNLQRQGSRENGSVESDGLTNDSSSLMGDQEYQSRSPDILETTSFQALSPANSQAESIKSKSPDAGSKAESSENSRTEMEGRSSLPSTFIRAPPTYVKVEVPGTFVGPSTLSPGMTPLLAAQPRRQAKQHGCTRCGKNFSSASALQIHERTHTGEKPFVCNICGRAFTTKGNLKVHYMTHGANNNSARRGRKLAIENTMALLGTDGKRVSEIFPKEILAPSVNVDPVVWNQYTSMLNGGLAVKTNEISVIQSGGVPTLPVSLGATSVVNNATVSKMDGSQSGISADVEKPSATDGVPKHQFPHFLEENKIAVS
Technique: universal PBM
Molecule type: double-stranded DNA, one strand shown
Sample: in vitro
Concentration: 600 nM
Notes: 8-mer, flanks averaged, mean of replicates
Reading: higher = stronger binding
Sequence	E-score
GCTGCGTA	-0.142
TGATGGCA	0.0311
AGGAGGGC	-0.303
CCATTTCA	0.0914
CAGTCCCA	-0.195
TCTTAACA	0.174

Sample 2
Target: Interferon regulatory factor 5, full length, phosphomimetic (IRF5, Homo sapiens, UniProt Q13568-2, residues 1-514, S451D/S453D/S456D/S462D)
Technique: protein-binding microarray
Molecule type: double-stranded DNA, one strand shown
Sample: in vitro
Concentration: 940 nM top
Notes: 60-bp whole probe
With: salmon DNA 0.4 mg/ml
Relative to: random background probes
Reading: higher = stronger binding
All sequences stand within: GCCTAGCAC … GTCTTGATTCGCTTGACGCTGCTG
Sequence	fitted relative affinity [z-score]
GACGGTTTCGGGGATCGGGACGTGCTA	7.07
TTAGATATCGGGTGTCGATTAGTGCTA	0.397
GATAATTTATAAATAAAAAAGTGCTAG	-0.0503
GACGGGATCCTTCTCCTGACGTGCTAG	-0.27
TCACTGTTCTTTTCAGTACTGTGCTAG	0.825
TTAGATATCGGACTGGGTTAGTGCTAG	-0.124

Sample 3
Target: Hepatocyte nuclear factor 3-beta, forkhead domain (FOXA2, Homo sapiens, UniProt Q9Y261, residues 142-269)
Technique: protein-binding microarray
Molecule type: double-stranded DNA, one strand shown
Sample: in vitro
Concentration: not given
Notes: k-mer, scored over probes, only values ≥0.25
Reading: higher = stronger binding
Residues (chain): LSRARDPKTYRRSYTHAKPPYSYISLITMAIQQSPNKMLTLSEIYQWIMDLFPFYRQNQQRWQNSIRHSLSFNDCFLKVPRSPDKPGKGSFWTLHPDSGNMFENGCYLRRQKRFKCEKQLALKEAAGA
Sequence	E-score
ACGATTTA	0.278
AATAATTC	0.292
TATTGTCA	0.305
AGTTAATA	0.267
ATGTATTG	0.379

Single results of other studies
Substance	target	assay	system	conditions	how to read	measurement	value
PhoQ, residues 284 288 289 292 302 303 TNSAEL	PhoP, residues 12 14 15 18 19 IQSYL (Escherichia coli, UniProt P23836)	Sort-seq, item: YFP reporter	E. coli	PhoQ-PhoP variant library, with: 10 µM Mg2+	relative to: high Mg2+ state, higher = stronger signaling	fold induction	18.5

A few entries again (sample 1):
Sequence	E-score
GCTGCGTA	-0.142
TGATGGCA	0.0311
AGGAGGGC	-0.303
